Experimental data collected from several papers.
Compare with care: the assays were run in different laboratories. “And” joins repeats or separate records; there may be more than shown. ≈ marks a conversion by molar mass, not a printed value.
Organism: Staphylococcus aureus

SMILES | test | system | conditions | scale | quantity | result
CC(C)C[C@H](NC(=O)CNC(=O)CNC(=O)CNC(=O)[C@H](Cc1ccc(O)cc1)NC(=O)[C@H](CC(C)C)NC(=O)[C@@H](NC(=O)CNC(=O)[C@H](Cc1ccc(O)cc1)NC(=O)[C@H](CCCCN)NC(=O)[C@H](CC(N)=O)NC(=O)[C@@H](NC(=O)[C@H](CCCCN)NC(=O)[C@H](Cc1c[nH]c2ccccc12)NC(=O)CN)[C@@H](C)O)[C@@H](C)O)C(=O)N[C@@H](CCCCN)C(=O)N[C@@H](CCCCN)C(=O)N[C@@H](CC(C)C)C(=O)N[C@@H](CC(C)C)C(=O)N[C@@H](CC(C)C)C(=O)N[C@@H](CC(C)C)C(=O)N[C@@H](CC(C)C)C(=O)N[C@@H](CCCCN)C(=O)N[C@@H](CCCCN)C(=O)N[C@@H](CC(C)C)C(=O)NCC(=O)O |  | ATCC 25923 | added: 6 µM NH4Cl |  | MIC | 16 µg/mL (≈ 5.59 µM)
OB(O)c1csc2ccccc12 | crystal violet | USA300 wild type | 100 µM | baseline: wild type untreated | biofilm formation | 27.4% and 24.1% and 20.2%
CC(=O)NC[C@H]1CN(c2ccc(N3CCOCC3)c(F)c2)C(=O)O1 |  | MRSA, 10 isolates | pH 7.0 |  | MIC50 | 1 µg/mL (≈ 2.96 µM)
CC[C@H](C)[C@H](NC(=O)[C@H](C)NC(=O)[C@H](CCCCN)NC(=O)[C@H](CC(C)C)NC(=O)[C@H](C)NC(=O)[C@@H](NC(=O)[C@H](Cc1c[nH]cn1)NC(=O)[C@H](CC(C)C)NC(=O)[C@@H](NC(=O)[C@@H](NC(=O)[C@H](CCCCN)NC(=O)[C@H](C)NC(=O)[C@H](C)NC(=O)[C@H](CO)NC(=O)[C@H](CCCCN)NC(=O)[C@H](Cc1ccccc1)NC(=O)[C@@H](NC(=O)[C@H](CCCCN)NC(=O)[C@H](CC(C)C)NC(=O)[C@H](Cc1ccccc1)NC(=O)[C@H](CO)NC(=O)[C@H](CCCCN)NC(=O)[C@H](Cc1c[nH]c2ccccc12)NC(=O)[C@H](CCCCN)NC(C)=O)[C@@H](C)O)[C@@H](C)O)C(C)C)[C@@H](C)O)C(=O)N[C@@H](CO)C(=O)N[C@@H](CO)C(N)=O |  | MSSA | 67 strains |  | MIC geometric mean | 4.87 µg/mL (≈ 1.66 µM)
C=CC[C@@H]1c2ccc(OC)c(OC)c2CN2CCc3cc4c(cc3[C@H]12)OCO4 |  | P2rx7 A312V/A312V mice, skin wound infection | dose not given, day 6 | baseline: day 0 | relative wound size | 0.8 and 0.44 and 0.59 and 0.37
CO/N=C(\C(=O)N[C@@H]1C(=O)N2C(C(=O)O)=C(CSC(=O)c3ccco3)CS[C@H]12)c1csc(N)n1 |  | CAAS-2019-CAAS-2019-09 clinical blaZ-resistant isolate, PBS |  |  | MBC | 16 µg/mL
CCCCCCCCCC(=O)N[C@@H](Cc1c[nH]c2ccccc12)C(=O)N[C@H](CC(N)=O)C(=O)N[C@@H](CC(=O)O)C(=O)N[C@@H]1C(=O)NCC(=O)N[C@@H](CCCN)C(=O)N[C@@H](CC(=O)O)C(=O)N[C@H](C)C(=O)N[C@@H](CC(=O)O)C(=O)NCC(=O)N[C@H](CO)C(=O)N[C@@H]([C@H](C)CC(=O)O)C(=O)N[C@@H](CC(=O)c2ccccc2N)C(=O)O[C@@H]1C | broth microdilution | BR-VRSA strain 880, Mueller-Hinton broth, Mg2+ 10 mg/L | 16 h, added: Ca2+ 1.0 mM |  | MIC | 0.5 µg/mL (≈ 0.309 µM)
CN[C@H](CC(C)C)C(=O)N[C@H]1C(=O)N[C@@H](CC(N)=O)C(=O)N[C@H]2C(=O)N[C@H]3C(=O)N[C@H](C(=O)N[C@H](C(=O)O)c4cc(O)cc(O)c4-c4cc3ccc4O)[C@H](O)c3ccc(c(Cl)c3)Oc3cc2cc(c3O[C@@H]2O[C@H](CO)[C@@H](O)[C@H](O)[C@H]2O[C@H]2C[C@](C)(N)[C@H](O)[C@H](C)O2)Oc2ccc(cc2Cl)[C@H]1O |  | CAAS-2019-19 clinical blaZ-resistant isolate, 25% plasma |  |  | MBC | 8 µg/mL (≈ 5.52 µM)
Cc1c2c(nn1C)CSCc1cc(n(C)n1)CSc1cc(c3ccccc3c1)OCCCc1c(C(=O)O)n(C)c3c-2c(Cl)ccc13 | label-free quantitative proteomics, measured: SAOUHSC_00864 protein | SA113 | concentration not given | baseline: untreated control | fold change | 0.0254
